Measured values gathered from unrelated publications.
Every numbered part comes from another study and shows a few of its results, in no order. Changes are numbered by the printed parent chain.

Study 1
Target: Histone acetyltransferase KAT6A, winged helix 2, GST fusion (KAT6A, Homo sapiens, UniProt Q92794, residues 85-181)
Method: protein binding microarray
Form: double-stranded DNA, one strand shown
Medium: in vitro
Tested at: not given
Setting: 8-mer, flanks averaged, mean of 2 arrays, mostly near background
Reference: not given
Reading: higher = stronger binding
Residues (chain): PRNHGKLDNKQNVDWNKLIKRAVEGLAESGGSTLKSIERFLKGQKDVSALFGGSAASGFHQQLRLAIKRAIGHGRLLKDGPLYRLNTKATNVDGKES
Oligonucleotide | E-score
CACTAAGC | -0.0646
AATAAGAT | 0.0616
AGGCTACC | -0.0333
AAGCATAT | 0.0365
CGTGTCCA | 0.126
AGTACATG | -0.0855
CTATCACC | -0.186
GCGCCCCC | 0.117
AGATTATA | -0.0643
GTGACTAA | 0.0389
ATCATATA | 0.151
GTGCGAGA | 0.0159
ATGTAGAA | -0.145
AAATCTGG | 0.113
ACCTTCTC | -0.0318
AGAGCCCG | 0.113
ACGCTTAC | -0.14
ACTGCCCA | -0.248
CTGCAACA | 0.0884
ACGCAATA | -0.0369
GTGTTTGA | 0.118
CACGCCTC | 0.0409

Study 2
Target: Fragile X messenger ribonucleoprotein 1, C-terminal low-complexity region (Fmr1, Mus musculus, UniProt P35922)
Method: RNA Bind-n-Seq
Form: RNA
Medium: in vitro
Tested at: 200 nM
Setting: whole 134-nt RNA, ends assumed
Added: 150 mM LiCl
Reference: input library
Reading: higher = stronger binding
Library: 7-deaza-guanosine replaces G
Oligonucleotide | log2 enrichment
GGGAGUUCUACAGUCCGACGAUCCUGUGCUACACAUCGUAUGUACCGAAUCGGGGAAAAAAAGGGGUUUGGGGAAAAAAAGGGGAAAGUAUUAUGUUACGCCGUUCGGAUCUGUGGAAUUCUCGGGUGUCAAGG | -0.429
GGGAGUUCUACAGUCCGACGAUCUCCUCAAGUCCUGUGCUACACAUCGUAUGUACCGAAUCGGGCGGCGGCGGGAAAGUAUUAUGUUACGCCGUUCGGAUCUGCACUUCCAGCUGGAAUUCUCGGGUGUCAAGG | 0.957
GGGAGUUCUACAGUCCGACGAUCUAACUUUAGAGGAGGAUCUGAUGGAUAUGGCAGUGGACGUGGAUUUGAGGAUGGCUAUAAUGGGUAUGGAGGAGGACCUGGAGGUGGCAAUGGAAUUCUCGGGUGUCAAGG | 0.294
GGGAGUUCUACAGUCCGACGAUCUAACUUUAGAGGAGGUUCUGAUGGAUAUGGCAGUGGACGUGGAUUUGGGGAUGGCUAUAAUGGGUAUGGAGGAGGACCUGGAGGUGGCAAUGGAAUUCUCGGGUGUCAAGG | -0.0415
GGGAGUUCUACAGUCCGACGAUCGUCCUGUGCUACACAUCGUAUGUACCGAAUCGGUUUUUGGGGUUUUUGGGUUUUUGGGGAAAGUAUUAUGUUACGCCGUUCGGAUCUGCAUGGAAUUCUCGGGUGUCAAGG | -1.02
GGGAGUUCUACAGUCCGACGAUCUAACUUUAGAGGAGGAUCUGAUGGAUAUGGCAGUGGACGUGGAUUUGGGGAUGGCUAUAAUGGGUAUGGUGGAGGACCUGGAGGUGGCAAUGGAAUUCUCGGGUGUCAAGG | 0.235
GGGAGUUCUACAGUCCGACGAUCAAGUCCUGUGCUACACAUCGUAUGUACCGAAUCAAAUUUAAACCCAAAUUUUUAAAAAAGUAUUAUGUUACGCCGUUCGGAUCUGCACUUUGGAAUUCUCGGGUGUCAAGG | -1.65
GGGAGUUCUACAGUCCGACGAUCUACUCUUUGAUUUAUCAAAUGUGUUCAGUUGGAGAAUCGUCCUCAGGAAAGGCUUCAAGGAGCCUUGCACAGCAUAUUCCUGGCCCUGGUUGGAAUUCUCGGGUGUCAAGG | -2.66
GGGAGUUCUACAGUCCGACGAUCCACAGACAACACGCACCCACACAGACACAGAGGGAAGGGGUUGGGAUGGGGACAGGGUGCUCAGCAGGGCGGGGUAGGACCCCAGCCCCUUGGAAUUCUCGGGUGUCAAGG | -0.0568
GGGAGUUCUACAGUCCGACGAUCCUCAAGUCCUGUGCUACACAUCGUAUGUACCGAAUCGGGGAAGGAAGGGAAGGAAAGUAUUAUGUUACGCCGUUCGGAUCUGCACUUCCAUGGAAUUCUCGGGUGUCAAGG | -1.03
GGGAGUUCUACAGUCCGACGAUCUCAAGUCCUGUGCUACACAUCGUAUGUACCGAAUCGGUUGGGGUUGGGGUUGGGGAAAGUAUUAUGUUACGCCGUUCGGAUCUGCACUUCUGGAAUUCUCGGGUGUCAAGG | -1.3

Study 3
Target: RNA binding protein fox-1 homolog 2, RRM domain, GST-SBP tag (RBFOX2, Homo sapiens, UniProt O43251-10, residues 100-194)
Method: RNA Bind-n-Seq
Form: RNA
Medium: in vitro
Tested at: 365 nM
Setting: natural RNA segment, single round, ends assumed
Reference: no-protein control
Reading: higher = stronger binding
Target sequence (chain): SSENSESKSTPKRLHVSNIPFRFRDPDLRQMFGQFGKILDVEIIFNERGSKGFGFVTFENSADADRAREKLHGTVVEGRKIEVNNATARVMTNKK
Oligonucleotide | RBNS enrichment (R)
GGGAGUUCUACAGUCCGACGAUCGUGAUGCAUUCAAACUGUCUAGCAAUAGAUCUUUUAAAACGAUGUAAAACCAUUCAGGGUAAUUUUUCUUGUCAGUGGCCAGUGGCAUCCCUGACCUCCAGAAAGAAGCCUGGAAUUCUCGGGUGCCAA | 0.995
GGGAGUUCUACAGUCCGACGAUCUGGUCCUAUUCAGAGGACUCUUACCACGACGUUUCUGUUCUACACUUGGGUGGAGACCAGUUGACCAUAGAGCAUUUGCAGAGCCUCAUUGUUUGAUUUCUUGUGACUAUUGGAAUUCUCGGGUGCCAA | 0.514
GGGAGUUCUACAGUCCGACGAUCGAAACCCUUCACACCCCAGGCCCUUCAGGAACUGGGGCCUUGCCUUGCAGCCACAUGGCCCCAUCCCAGUUGGGGAAGCCAGGUGAGCUCUGACCCUUGGGCCUGGGCCUUGGAAUUCUCGGGUGCCAA | 0.747
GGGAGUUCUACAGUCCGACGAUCUUGCUGUUGAUGCCAUAUGUUUAGACUGCUGUUCUGACCCUAUUUAUCUUUCUCUCUGCCAUUUGGAACUUUAUUCCCUAACCCAGGUUUUGCUGCUGUGAAACAGCGUUUGGAAUUCUCGGGUGCCAA | 0.975
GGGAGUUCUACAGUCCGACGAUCAAAGGUACUAUAUUUGCCAGACUCUAGACAUAAGAUAUUGUACAUAAAGAGAAUUUUUUUUGCCUUUAAAUAGAUAAAAGUAUCUAUCAGAUAAAAAUCAGGUUGUAAGUUGGAAUUCUCGGGUGCCAA | 0.551
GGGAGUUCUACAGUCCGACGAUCACACAUUUUUAAUGUAUUAAAAUUUGGUAAUUAUGUGUACAUUAAAUUAAUAAAAGUUACUUCUAGUUAUGAUUUGUGAAUUCCCUAAGACCUUGGAUUUUUUUAAGUAAUGGAAUUCUCGGGUGCCAA | 0.88
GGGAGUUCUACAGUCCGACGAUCCUACCAUUGGGAACACAAGGGGCCCCUGAGGGGCCUCCACCUCACUGCCUUAAGUGAGUCCCGCCCACUCCCUGCCUCCCUCCGAGGUGGGCGGGAGUUCCUACCCCAUCUGGAAUUCUCGGGUGCCAA | 0.371
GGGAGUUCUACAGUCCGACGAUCAUCAUGGCUCCUAUCAGUCUCAGAUUCCAGAUCUAGCAUUCCAGAUCUGAAUUUCAGAUUCAGAUCAGGCAUUGGCUGUAAAGUCUACCACGAAGUCCCAAUCUACCCUUUGGAAUUCUCGGGUGCCAA | 0.221
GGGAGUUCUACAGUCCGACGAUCGUGAUUGACACCUGCUGCUUUUGAGGAGCUCGGCUGCAGUGAUCACUGGCGUGUGGCACUCUGGCUACAAACUGCUGACCCAGGGGUUCCAGACACUGCUCACUCACUGGUGGAAUUCUCGGGUGCCAA | 0.282
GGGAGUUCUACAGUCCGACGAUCGCCUGUUCAAGGCAGAACCACGACCCUUGACUCCCGGGUGGGGAGGUGGCCAAGGAUGCUGGAGCUGAAUCAGACGCUGACAGUUCUUCAGGCAUUUCUAUUUCACAAUCUGGAAUUCUCGGGUGCCAA | 0.582
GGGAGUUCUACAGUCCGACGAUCCAAGAUGGGGUGGCGUUUUUCCCAUACUCACUCCUUCUUGAUUCUUCACUGUGGUCUUUUCCAGAUAAGUUACUUCUUUUGCAUCUGAAAUGGGAUGUGGCCAUGGCAUUUGGAAUUCUCGGGUGCCAA | 0.786
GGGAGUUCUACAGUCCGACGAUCUCCACCUGCUGGGGCACCAUUCUUAGUAUACAGAGGUGGCCUUACACACAUCUUGCAUGGAUGGCAGCAUUGUUCUGAAGGGGUUUGCAGAAAAAAAAGAUUUUCUUUACUGGAAUUCUCGGGUGCCAA | 5.98

Study 4
Target: DDIT3, bZIP domain (human)
Method: DHFR protein complementation
Medium: yeast
Setting: single substitutions, most at no-binding floor
Reference: wild-type JUN-FOS pair
Reading: higher = stronger binding
Starting sequence: JUN, bZIP domain (human); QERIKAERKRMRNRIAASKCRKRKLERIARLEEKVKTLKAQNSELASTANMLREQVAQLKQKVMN; partner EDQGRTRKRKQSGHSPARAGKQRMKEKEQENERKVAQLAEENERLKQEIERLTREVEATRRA
Substitution | binding fitness [natural log]
M51C | -0.0414
E32F | -1.04
T37H | 0.155
L52G | -1.41
E33S | -0.107
K34R | 0.158
K39C | -0.156
K39F | -0.285
S47Y | 0.00503
T37Q | 0.169
E54I | -0.0611
L38R | -1.21
E44W | -0.451
Q41D | -0.308
M51F | -0.0323
L31T | -0.448
S43Y | -0.0195
L59F | -0.535
T37E | 0.164
S43F | -0.0122
N42Y | -0.611
S47C | 0.0198
T48A | -0.0229
K39Y | -0.247
I28C | -0.146

Study 5
Target: CCNA2, cyclin fold, Cln2 fusion (human)
Method: yeast growth competition, sequencing
Medium: yeast
Setting: strong parent motif
Reference: not given
Reading: higher = stronger binding
Starting sequence: PKN2 docking peptide (human); VSAVQKLDFSDTM; partner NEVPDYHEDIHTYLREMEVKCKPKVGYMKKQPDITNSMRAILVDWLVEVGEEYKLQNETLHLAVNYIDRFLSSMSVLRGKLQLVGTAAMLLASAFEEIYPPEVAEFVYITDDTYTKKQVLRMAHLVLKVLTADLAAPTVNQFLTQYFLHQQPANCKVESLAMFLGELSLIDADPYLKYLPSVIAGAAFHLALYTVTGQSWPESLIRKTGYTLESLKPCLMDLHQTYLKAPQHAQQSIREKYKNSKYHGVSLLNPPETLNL
Substitution | normalised enrichment score
VCAVQKLDFSDTM [S2C] | 1.57
VSAVQHLDFSDTM [K6H] | 1.54
VSAVQKLDFSRTM [D11R] | 1.83
VSAVQKLDFSDTL [M13L] | 2.02
CSAVQKLDFSDTM [V1C] | 2.47
VSAVQKLDFSPTM [D11P] | 1.19
LSAVQKLDFSDTM [V1L] | 1.68
VSAVQKLDFSMTM [D11M] | 2.06
VSQVQKLDFSDTM [A3Q] | -0.513
VSAVQKLWFSDTM [D8W] | 1.68
VHAVQKLDFSDTM [S2H] | 2.01
VIAVQKLDFSDTM [S2I] | 1.01
VSAVQKLDFSETM [D11E] | 1.85
FSAVQKLDFSDTM [V1F] | 2.45
VSAVQKLDLSDTM [F9L] | -0.108
VSAVQKHDFSDTM [L7H] | 0.162
